# Experimental data from different studies.
# Protocols differ between the studies behind these lines.
Structure (SMILES),organism,test,test system,conditions,MIC
CC(=O)N[C@@H](CC(C)C)C(=O)N[C@H]1CSSC[C@@H](C(=O)N2CCC[C@H]2C(N)=O)NC(=O)[C@H]([C@@H](C)O)NC(=O)[C@H](C(C)C)NC(=O)[C@H]([C@@H](C)O)NC(=O)CNC(=O)[C@H](CC(C)C)NC(=O)[C@H](Cc2ccccc2)NC(=O)[C@H](Cc2ccc(O)cc2)NC(=O)[C@H](CC(C)C)NC(=O)[C@H](CCCCN)NC(=O)[C@H](Cc2ccccc2)NC(=O)[C@H](CCCNC(=N)N)NC(=O)[C@H](CCC(N)=O)NC(=O)[C@H](CC(C)C)NC(=O)[C@H](CCCCN)NC(=O)[C@@H]2CCCN2C(=O)[C@H](CCCCN)NC(=O)[C@H](C(C)C)NC(=O)[C@H](CCCCN)NC(=O)[C@H](Cc2ccc(O)cc2)NC(=O)[C@H]([C@@H](C)O)NC1=O,Vibrio alginolyticus,broth dilution,,24 h,10 to 20 µM
[O-][N+]1=C(c2ccc(Cl)cc2)C2=NCCCCN2c2ccccc21,Bacteroides spp. and Parabacteroides distasonis,,,,0.5 to 2 µg/mL
CC(C)Oc1ccc(B(O)O)c(F)n1,Klebsiella aerogenes,bacterial growth,AmpC overproducer clinical isolate,without cefotaxime,2050 µg/mL
COc1ccc(C2=[N+]([O-])c3ccccc3N3CCN=C23)cc1,Bacteroides fragilis,,,,0.06 to 0.125 µg/mL
CC[C@H](C)[C@H](NC(=O)[C@H](CCCCN)NC(=O)[C@H](CCCCN)NC(=O)[C@H](Cc1ccccc1)NC(=O)[C@H](Cc1ccccc1)NC(=O)[C@H](CCCCN)NC(=O)[C@H](CCCCN)NC(=O)[C@H](Cc1ccccc1)NC(=O)[C@H](CCCNC(=N)N)NC(=O)[C@@H](N)CCCCN)C(=O)N[C@@H](CCCCN)C(=O)N[C@@H](CCCCN)C(=O)N[C@@H](CO)C(=O)N[C@H](C(=O)N[C@@H](CCCCN)C(=O)N[C@@H](CCCCN)C(=O)N[C@@H](CCCNC(=N)N)C(=O)N[C@H](C(=O)N[C@@H](CCCCN)C(=O)N[C@@H](CCCCN)C(=O)N[C@@H](CC(C)C)C(=O)N[C@@H](Cc1ccccc1)C(=O)N[C@@H](CCCCN)C(=O)N[C@@H](CCCCN)C(=O)N1CCC[C@H]1C(=O)N[C@@H](CCCNC(=N)N)C(=O)N[C@H](C(=O)N[C@H](C(=O)N1CCC[C@H]1C(=O)N[C@H](C(=O)N[C@@H](CO)C(=O)N[C@H](C(=O)N1CCC[C@H]1C(=O)N[C@@H](Cc1ccccc1)C(=O)O)[C@@H](C)CC)[C@@H](C)CC)[C@@H](C)CC)C(C)C)C(C)C)C(C)C,Pseudomonas aeruginosa,broth microdilution,P1 clinical isolate,20 h,4 µg/mL
CCCCCCCCCCCCCC(=O)N[C@H]1C(=O)N[C@@H](CN)C(=O)N[C@@H](CO)C(=O)N[C@@H](Cc2ccc(O)cc2)C(=O)O[C@H]1C,Staphylococcus aureus,,SH1000,"added: sphingomyelin, molar ratio 0.5",2 µg/mL
CSCC[C@H](NC=O)C(=O)N[C@@H](CCCNC(=N)N)C(=O)N[C@H](C(=O)NCC(=O)N[C@@H](CC(N)=O)C(=O)N[C@@H](C)C(=O)N[C@@H](CC(N)=O)C(=O)NCC(=O)N1CCN(c2cc3c(cc2F)c(=O)c(C(=O)O)cn3C2CC2)CC1)[C@@H](C)O,Shigella flexneri,broth dilution,CGMCC 1.187,,50 µM
CC(=O)N[C@@H](CC(C)C)C(=O)N[C@H]1CSSC[C@@H](C(=O)N2CCC[C@H]2C(N)=O)NC(=O)[C@H]([C@@H](C)O)NC(=O)[C@H](C(C)C)NC(=O)[C@H]([C@@H](C)O)NC(=O)CNC(=O)[C@H](CC(C)C)NC(=O)[C@H](Cc2ccccc2)NC(=O)[C@H](Cc2ccc(O)cc2)NC(=O)[C@H](CC(C)C)NC(=O)[C@H](CCCCN)NC(=O)[C@H](Cc2ccccc2)NC(=O)[C@H](CCCNC(=N)N)NC(=O)[C@H](CCC(N)=O)NC(=O)[C@H](CC(C)C)NC(=O)[C@H](CCCCN)NC(=O)[C@@H]2CCCN2C(=O)[C@H](CCCCN)NC(=O)[C@H](C(C)C)NC(=O)[C@H](CC(N)=O)NC(=O)[C@H](Cc2ccc(O)cc2)NC(=O)[C@H]([C@@H](C)O)NC1=O,Shigella flexneri,broth dilution,CGMCC strain,24 h,2.5 to 5 µM
O=C(c1ccccc1O)c1[nH]c(Cl)c(Cl)c1-n1c(C(=O)c2ccccc2O)cc(Cl)c1Cl,Listeria ivanovii,,BAA-139,,0.5 µM
O=[N+]([O-])c1ccc(C2=[N+]([O-])c3ccccc3N3CCCN=C23)cc1,Bacteroides fragilis,,,,0.06 to 0.25 µg/mL
CC1(C)C(NC(=O)C(=NOC2(C(=O)O)CC2)c2csc(N)n2)C(=O)N1OS(=O)(=O)O (stereo not shown),Klebsiella pneumoniae,,"ATCC 1705, ESBL, NDM and KPC",compound alone,2 µg/mL
C[N+]1=C2C(c3ccc([N+](=O)[O-])cc3)=[N+]([O-])c3ccccc3N2CCC1,Bacteroides fragilis,,,,0.125 to 2 µg/mL
CCCCCCCCCC(=O)NCCCC[C@H](NC(=O)CCCCCCCCC)C(=O)N[C@@H](CCCCNC(=O)CCCCCCCCC)C(=O)NCC(=O)NCC(=O)NCC(=O)N[C@@H](CS)C(=O)N[C@@H](CCCNC(=N)N)C(=O)N[C@@H](CCCCN)C(=O)N1CCC[C@H]1C(=O)N[C@@H](CS)C(=O)N[C@@H](CCCNC(=N)N)C(=O)N[C@@H](CCCCN)C(=O)N1CCC[C@H]1C(N)=O,Candida parapsilosis,broth microdilution,"CGMCC 2.399, RPMI-1640","48 h, 30 °C",32 µM
[O-][N+]1=C(c2ccccc2)C2=NCCCN2c2ncccc21,Bacteroides fragilis,,,,0.06 to 0.125 µg/mL
CC(C)CCCCCCCCC/C=C/C(=O)N[C@@H](CC(=O)O)C(=O)N[C@H]1CNC(=O)[C@@H]2CCCN2C(=O)[C@H](C(C)C)NC(=O)[C@@H](CN)NC(=O)CNC(=O)[C@H](CC(=O)O)NC(=O)CNC(=O)[C@H](CC(=O)O)NC(=O)[C@H](CC(=O)O)NC(=O)[C@H]2CCCCN2C1=O,Enterococcus,broth microdilution,"VRE 155, Mueller-Hinton broth, Mg2+ 10 mg/L","16 h, added: Ca2+ 5 mM",1 µg/mL
CC(=O)N[C@@H](CC(C)C)C(=O)N[C@H]1CSSC[C@@H](C(=O)N2CCC[C@H]2C(N)=O)NC(=O)[C@H]([C@@H](C)O)NC(=O)[C@H](C(C)C)NC(=O)[C@H]([C@@H](C)O)NC(=O)CNC(=O)[C@H](CCCCN)NC(=O)[C@H](Cc2ccccc2)NC(=O)[C@H](Cc2ccc(O)cc2)NC(=O)[C@H](CCCCN)NC(=O)[C@H](CCC(=O)O)NC(=O)[C@H](Cc2ccccc2)NC(=O)[C@H](CCCNC(=N)N)NC(=O)[C@H](CCCCN)NC(=O)[C@H](CC(C)C)NC(=O)[C@H](CC(=O)O)NC(=O)[C@@H]2CCCN2C(=O)[C@H](CCCCN)NC(=O)[C@H](C(C)C)NC(=O)[C@H](CCCCN)NC(=O)[C@H](CCCCN)NC(=O)[C@H]([C@@H](C)O)NC1=O,Corynebacterium glutamicum,broth dilution,CGMCC strain,24 h,5 to 10 µM
CN[C@H](CC(C)C)C(=O)N[C@H]1C(=O)N[C@@H](CC(N)=O)C(=O)N[C@H]2C(=O)N[C@H]3C(=O)N[C@H](C(=O)N[C@H](C(=O)O)c4cc(O)cc(O)c4-c4cc3ccc4O)[C@H](O)c3ccc(c(Cl)c3)Oc3cc2cc(c3O[C@@H]2O[C@H](CO)[C@@H](O)[C@H](O)[C@H]2O[C@H]2C[C@](C)(NCc3ccc(OCc4cn(CC(=O)N[C@H](C(=O)N[C@@H](CCN)C(=O)N[C@H]5CCNC(=O)[C@H]([C@@H](C)O)NC(=O)[C@H](CCN)NC(=O)[C@H](CCN)NC(=O)[C@H](CC(C)C)NC(=O)[C@@H](CC(C)C)NC(=O)[C@H](CCN)NC5=O)[C@@H](C)O)nn4)c(OC)c3)[C@H](O)[C@H](C)O2)Oc2ccc(cc2Cl)[C@H]1O,Enterococcus faecalis,broth microdilution,"vancomycin-resistant, tryptic soy broth","20 to 24 h, 37 °C, 0.002% polysorbate 80",64 µg/mL
C[N+]1=C2C(c3ccc(Cl)cc3)=[N+]([O-])c3ccccc3N2CCC1,Bacteroides fragilis,,,,1 to 8 µg/mL
CC(C)CCCCCCCCC/C=C/C(=O)N[C@@H](CC(N)=O)C(=O)N[C@H]1CNC(=O)[C@@H]2CCCN2C(=O)[C@H](C(C)C)NC(=O)[C@@H](CN)NC(=O)CNC(=O)[C@H](CC(=O)O)NC(=O)CNC(=O)[C@H](CC(=O)O)NC(=O)[C@H](CC(=O)O)NC(=O)[C@H]2CCCCN2C1=O,Enterococcus,broth microdilution,"VRE 155, Mueller-Hinton broth, Mg2+ 10 mg/L","16 h, added: Ca2+ 10 mM",0.5 µg/mL
CC(=O)N[C@@H](CC(C)C)C(=O)N[C@H]1CSSC[C@@H](C(=O)N2CCC[C@H]2C(N)=O)NC(=O)[C@H](CCCCN)NC(=O)[C@H](C(C)C)NC(=O)[C@H](CCCCN)NC(=O)CNC(=O)[C@H](CC(C)C)NC(=O)[C@H](Cc2ccccc2)NC(=O)[C@H](CCCCN)NC(=O)[C@H](CC(C)C)NC(=O)[C@H](CCC(=O)O)NC(=O)[C@H](Cc2ccccc2)NC(=O)[C@H](CCCNC(=N)N)NC(=O)[C@H](CCCCN)NC(=O)[C@H](CC(C)C)NC(=O)[C@H](CC(=O)O)NC(=O)[C@@H]2CCCN2C(=O)[C@H](CCCCN)NC(=O)[C@H](C(C)C)NC(=O)[C@H](CCCCN)NC(=O)[C@H](CCCCN)NC(=O)[C@H](CCCCN)NC1=O,Corynebacterium glutamicum,broth dilution,CGMCC strain,24 h,< 1.25 µM
CCCCCC(=O)NCCCC[C@H](NC(=O)CCCCC)C(=O)N[C@@H](CCCCNC(=O)CCCCC)C(=O)NCC(=O)NCC(=O)NCC(=O)N[C@@H](CS)C(=O)N[C@@H](CCCNC(=N)N)C(=O)N[C@@H](CCCCN)C(=O)N1CCC[C@H]1C(=O)N[C@@H](CS)C(=O)N[C@@H](CCCNC(=N)N)C(=O)N[C@@H](CCCCN)C(=O)N1CCC[C@H]1C(N)=O,Candida parapsilosis,broth microdilution,"CGMCC 2.399, RPMI-1640","48 h, 30 °C",8 µM
CC[C@H](C)[C@@H]1NC(=O)[C@@H]([C@@H](C)O)NC(=O)CNC(=O)[C@H](CC(=O)O)NC(=O)CNC(=O)[C@H](CC(=O)O)NC(=O)CNC(=O)[C@H]2CCCCN2C(=O)[C@@H](NC(=O)[C@H](CC(=O)O)NC(=O)/C=C/CCCCCCCCCC(C)C)CNC(=O)[C@@H]2CCCN2C1=O,Staphylococcus aureus,broth microdilution,"VISA LIM strain 2, Mueller-Hinton broth, Mg2+ 10 mg/L","16 h, added: Ca2+ 5 mM",4 µg/mL
